Experimental data gathered from unrelated publications.
Compare with care: the assays were run in different laboratories.
Target: Tyrosine-protein kinase TXK (TXK, Homo sapiens, UniProt P42681)

Structure (SMILES) | test | test system | conditions | scale | measurement | result
O=C=[N][Ru-4]123([n]4c5ccc(O)cc5c5c6c(c7cc(F)c[n+]1c7c54)C(=O)NC6=O)[S+]1CC[S+]2CC[S+]3CC1 (stereo not drawn) | enzyme activity |  | 100 nM, human enzyme, added: 10 µM ATP | reference: untreated | remaining activity | 99%
Cc1ccc(-c2c(/C=C(\C#N)C(=O)NC(C)C)n(CCCO)c3ncnc(N)c23)cc1 | cell-free assay, competition with immobilised ligand |  | 1 µM |  | remaining binding | 100%
O=C(Nc1ccc(Oc2ncnc3[nH]cc(-c4ccccc4)c23)c(F)c1)c1c2n(n(-c3cc(F)ccc3F)c1=O)CCCC2 | enzyme activity, inhibitor |  | 0.5 µM |  | inhibition | 6%
COc1cc(Nc2nccc(-c3cnn4nc(OC)ccc34)n2)cc(C(F)(F)F)c1 | binding, competition with immobilised ligand |  | 1 µM |  | remaining binding | 100%
CCN1CCN(Cc2ccc(C(=O)Nc3ccc(C)c(NCc4cnc5[nH]ccc5c4OC)c3)cc2C(F)(F)F)CC1 | binding, competition with immobilised ligand |  | 1 µM |  | remaining binding | 3.2%
C=CC(=O)Nc1cccc(-c2cnc3[nH]cc(C(=O)NC(C)(C)C)c3n2)c1 | enzyme activity, inhibitor |  | 0.1 µM |  | inhibition | 56%
CC(C)=CC1OC(C)(C)C2C=C3C(=O)C(Cl)=CC(O)C3C3C(O)C4OC4C(=O)C132 (stereo not drawn) | cell-free assay, competition with immobilised ligand |  | 10 µM |  | remaining binding | 92%
NC(=O)C[C@H]1CCc2sc3ncnc(O[C@H]4CC[C@H](N5CCOCC5)CC4)c3c21 | enzyme activity, inhibitor |  | 10 µM |  | inhibition | 27%
CCn1cc(C(=O)O)c(=O)c2c(N)c(F)c(NC3CCCCC3)cc21 | kinase activity |  | 0.1 µM, added: ATP at Km |  | inhibition | -10.6%
COc1c(Cl)cccc1Nc1c(-c2ccncc2C#C[C@@]2(C)CCCN2C(=O)/C=C/CN(C)C)[nH]c2c1C(=O)NCC2 | binding, competition with immobilised ligand |  | 3 µM |  | remaining binding | 71%
Cc1cccc(O[C@H]2CCC[C@@H](C(C)CNCc3ccncc3)C2)c1 (relative stereo) | enzyme activity, inhibitor |  | 1 µM |  | inhibition | 7%
Nc1ncc(-c2cc(-c3cnn(CC(F)(F)F)c3)ncc2F)nc1C(=O)NC1CNCC(F)C1 (stereo not drawn) | enzyme activity |  | 1 µM | reference: DMSO control | remaining activity | 97.6%
COc1ccc(NC(=O)Nc2ccc3c(c2)C(=O)N(C(C)CO)CC(C)C(CN(C)Cc2ccc4c(c2)OCO4)O3)cc1 (stereo not drawn) | kinase activity, KinaseProfiler |  | 0.03 µM, species human | reference: control | remaining activity | 101%
CCN1CCN(Cc2ccc(NC(=O)c3ccc(C)c(NC(=O)c4cncc(-c5cnn(C)c5)c4)c3)cc2C(F)(F)F)CC1 | binding, competition with immobilised ligand |  | 1 µM |  | remaining binding | 1.9%
Cc1ccc(C(=O)Nc2ccc(CN3CCN(C)CC3)c(C(F)(F)F)c2)cc1C#Cc1cnc2cccnn12 | target engagement, NanoBRET | human cells |  |  | upper asymptote | 87.4
